Published values collected from several papers.
Lines come from different studies, so protocols differ. Numbers after ± are the reported error.
Cell line: HEK293

SMILES	assay	setting	how to read	measurement	result
CCCCCCCCn1cc(COc2nc3c(c(=O)n(C)c(=O)n3C)n2C)nn1	cell growth or viability, MTT	24 h	–	IC50	194 µM
O=c1[nH]cc(F)c(=O)[nH]1	cell viability, MTT	48 h, high affinity phase	–	EC50	93.3 µM
C[C@]1(CO)CN(c2cc(C(=O)Nc3ccc4c(c3)-c3c(c(C(N)=O)nn3-c3ccc(F)cc3)CC4)c(Cl)cn2)C[C@@]1(C)CO	cell growth or viability, ATP luminescence	24 h	–	IC50	1.23 µM
COc1cc(OC)cc(-c2cc3ccccc3[nH]2)c1	cell growth or viability	50 µM	–	viability	66.2%
Sc1ncnc2nc[nH]c12	cell viability, MTT	48 h, high affinity phase	–	EC50	7.76 µM
Cc1ccc(Cn2cc(COc3nc4c(c(=O)n(C)c(=O)n4C)n3C)nn2)cc1	cell growth or viability, MTT	24 h	–	IC50	> 300 µM
CN1[C@@H]2CC[C@H]1C[C@@H](OC(=O)C(CO)c1ccccc1)C2 (stereo partly shown)	ACh-induced Ca2+ response	100 µM, 1 h, together with: ACh 100 µM	–	inhibition	inhibited
Fc1cc(F)cc(-c2cc3ccccc3[nH]2)c1	cell growth or viability	50 µM	–	viability	108%
CC[PH](CC)(CC)[Au][S][C@@H]1O[C@H](COC(C)=O)[C@@H](OC(C)=O)[C@H](OC(C)=O)[C@H]1OC(C)=O	cell growth or viability, MTT	–	–	IC50	1.7 µM
Nc1ccn([C@@H]2O[C@H](CO)[C@@H](O)[C@@H]2O)c(=O)n1	cell viability, MTT	48 h, low affinity phase	–	EC50	6030 µM
Nc1ccccc1C#Cc1cc(F)cc(F)c1	cell growth or viability	50 µM	–	viability	121%
COc1cc(O)cc(O)c1C(=O)/C=C/c1ccccc1	cell growth or viability, ATP luminescence	24 h	–	IC50	27.5 µM
CCCCCCCn1cc(COc2nc3c(c(=O)n(C)c(=O)n3C)n2C)nn1	cell growth or viability, MTT	24 h	–	IC50	> 300 µM
CON=Cc1c(-c2ccccc2)[nH]c2ccccc12	cell growth or viability	50 µM	–	viability	51.8%
CCCCCCCc1c(C)[nH]c2cc(OC)ccc2c1=O	oxygen consumption	–	–	IC50	> 25 µM
Cc1ccccc1-c1cc2ccccc2[nH]1	cell growth or viability	50 µM	–	viability	121%
CCC(=O)O	mouse C10orf99 promoter luciferase, activator	concentration not given, 12 h, serum-free medium	reference: empty vector	reporter activity	increased
Nc1ccn([C@@H]2O[C@H](CO)[C@@H](O)C2(F)F)c(=O)n1	cell viability, MTT	48 h, high affinity phase	–	EC50	0.0417 µM
Cn1c(=O)c2c(nc(OCc3cn(C(c4ccccc4)c4ccccc4)nn3)n2C)n(C)c1=O	cell growth or viability, MTT	24 h	–	IC50	284 µM
c1cncc(-c2cc3ccccc3[nH]2)c1	cell growth or viability	50 µM	–	viability	71.4%
Nc1nc2nc[nH]c2c(=S)[nH]1	cell viability, MTT	48 h, high affinity phase	–	EC50	3.16 µM
Cn1c(=O)c2c(nc(OCc3cn(CCCc4ccccc4)nn3)n2C)n(C)c1=O	cell growth or viability, MTT	24 h	–	IC50	> 300 µM
CO[C@H]1[C@@H](O)[C@H]([n+]2cn(C)c3c(=O)[nH]c(N)nc32)O[C@@H]1COP(=O)([O-])OP(=O)(O)OP(=O)(O)OC[C@H]1O[C@@H](n2cnc3c(=O)[nH]c(N)nc32)[C@H](O)[C@@H]1O	luciferase reporter	mRNA capped with cpd	reference: m7GpppG-capped mRNA	relative protein expression	1.29 ± 0.25
Clc1ccc2[nH]c(-c3ccccc3)cc2c1	cell growth or viability	50 µM	–	viability	113%
CC(C)(C)c1ccc(S(=O)(=O)/C=C/C#N)cc1	cell growth or viability, ATP luminescence	24 h	–	IC50	> 100 µM
O=C1C(O)=C([C@H]2CC[C@H](c3ccc(Cl)cc3)CC2)C(=O)c2ccccc21	oxygen consumption	–	–	IC50	> 6 µM
O=C(c1ccc(Nc2nccc(-c3cc4ccccc4s3)n2)cc1)N1CCC(N2CCCC2)CC1	cell growth or viability, ATP luminescence	24 h	–	IC50	1.51 µM
O=[N+]([O-])c1ccc2[nH]c(-c3ccccc3)cc2c1	cell growth or viability	50 µM	–	viability	68.2%

Excerpt of the above:
SMILES	assay	setting	how to read	measurement	result
Cc1ccc(Cn2cc(COc3nc4c(c(=O)n(C)c(=O)n4C)n3C)nn2)cc1	cell growth or viability, MTT	24 h	–	IC50	> 300 µM
CO[C@H]1[C@@H](O)[C@H]([n+]2cn(C)c3c(=O)[nH]c(N)nc32)O[C@@H]1COP(=O)([O-])OP(=O)(O)OP(=O)(O)OC[C@H]1O[C@@H](n2cnc3c(=O)[nH]c(N)nc32)[C@H](O)[C@@H]1O	luciferase reporter	mRNA capped with cpd	reference: m7GpppG-capped mRNA	relative protein expression	1.29 ± 0.25
Cn1c(=O)c2c(nc(OCc3cn(CCCc4ccccc4)nn3)n2C)n(C)c1=O	cell growth or viability, MTT	24 h	–	IC50	> 300 µM
